Measured values collected from several papers.
Every numbered part comes from another study and shows a few of its results, in no order.

Study 1
Target: Sal-like protein 4, full length isoform A (SALL4, Homo sapiens, UniProt Q9UJQ4, residues 1-1053)
Chain of UniProt Q9UJQ4 (whole entry, looked up): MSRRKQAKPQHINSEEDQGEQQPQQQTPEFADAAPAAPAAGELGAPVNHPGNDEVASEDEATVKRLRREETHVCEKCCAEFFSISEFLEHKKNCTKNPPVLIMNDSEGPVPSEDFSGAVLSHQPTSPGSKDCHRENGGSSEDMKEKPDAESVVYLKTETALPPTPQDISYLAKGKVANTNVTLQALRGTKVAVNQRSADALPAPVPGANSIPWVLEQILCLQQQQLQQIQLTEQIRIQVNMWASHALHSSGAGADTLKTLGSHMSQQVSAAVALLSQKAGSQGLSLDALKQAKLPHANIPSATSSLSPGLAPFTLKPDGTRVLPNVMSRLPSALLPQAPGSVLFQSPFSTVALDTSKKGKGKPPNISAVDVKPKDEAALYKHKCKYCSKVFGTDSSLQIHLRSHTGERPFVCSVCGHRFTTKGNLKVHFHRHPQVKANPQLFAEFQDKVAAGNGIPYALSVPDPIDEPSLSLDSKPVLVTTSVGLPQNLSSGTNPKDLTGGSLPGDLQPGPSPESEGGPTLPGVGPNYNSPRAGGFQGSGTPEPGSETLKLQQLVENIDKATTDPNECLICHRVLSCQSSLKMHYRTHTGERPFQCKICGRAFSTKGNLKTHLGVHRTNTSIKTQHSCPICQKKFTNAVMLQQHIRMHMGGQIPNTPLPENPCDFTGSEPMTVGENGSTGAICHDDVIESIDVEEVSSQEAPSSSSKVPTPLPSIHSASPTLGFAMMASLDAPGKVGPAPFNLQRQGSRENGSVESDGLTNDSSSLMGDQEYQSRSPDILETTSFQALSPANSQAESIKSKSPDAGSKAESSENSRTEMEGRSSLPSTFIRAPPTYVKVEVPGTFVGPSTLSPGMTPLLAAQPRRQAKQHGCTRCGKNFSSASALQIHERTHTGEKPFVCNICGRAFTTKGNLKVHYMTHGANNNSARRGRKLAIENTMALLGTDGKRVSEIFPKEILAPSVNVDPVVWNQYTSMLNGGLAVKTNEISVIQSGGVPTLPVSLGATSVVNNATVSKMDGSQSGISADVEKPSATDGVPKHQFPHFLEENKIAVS
Method: universal PBM
Molecule type: double-stranded DNA, one strand shown
Medium: in vitro
Concentration: 600 nM
Setting: 8-mer, flanks averaged, mean of replicates
Reading: higher = stronger binding
Measurement: E-score
GCAGAGGA: -0.133
GCACTAGA: -0.0618
AATTGTCC: 0.095
CGCGTAAG: -0.0114
GGTACGGA: -0.244
ATACGTAA: 0.28
TGGCCCAA: -0.205
CACAGGGC: -0.237

Study 2
Target: RNA binding protein fox-1 homolog 2, RRM domain, GST-SBP tag (RBFOX2, Homo sapiens, UniProt O43251-10, residues 100-194)
Method: RNA Bind-n-Seq
Molecule type: RNA
Medium: in vitro
Concentration: 365 nM
Setting: natural RNA segment, single round, ends assumed
Reference: no-protein control
Reading: higher = stronger binding
Measurement: RBNS enrichment (R)
All sequences stand within: GGGAGUUCUACAGUCCGACGAUC … UGGAAUUCUCGGGUGCCAA
Residues (chain): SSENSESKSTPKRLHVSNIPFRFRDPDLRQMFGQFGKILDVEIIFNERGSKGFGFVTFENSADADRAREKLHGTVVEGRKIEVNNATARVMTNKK
AAUCUUAAAGGAAUAAAGCACUGAAUUGGGACUAACAUUCUGAUAGGUUGCACCCUUAAGAGUAUUCAGAGAGCAUCAAAAGGAGCCCACACCUUCAGCAGUGAAGGAUU: 0.217
UAUUACGUAUGUACUUCUAGGUUGCAAGGUUUUGAAAUUUUCUGUACAGUUUGUGAGGACCUUUGCACUUUGCCAUCUGAUGUCGUACCUCGGUUCACUGUUUGUUUUCG: 0.39
UGAAUUCUUAGCUCCCUGAUUACACCUGCCACCUUGGAAUCAAGGACUCACACUUCUGACCCUGCCUGUCUUUUUGGGGUUUUUUUGAGUUGGAGUCUCGCUGUGUCGCC: 1.63
AUCUUCACUGUUUCACCAUCUAGCUUGCUAAGUCAAAUAUUUAUGAUGAUAAUGAGGUACUGAACCACGAUGGCUGUUGAGGAAUUGGUCCUAAAAGGACAGAUCACUUC: 0.34
UAUUAGUAUCUUCUCAGAUACAGACCGUUUUAUGAUUUUUUAAAAAGUAAAAGUUCUAAAAUGAAGUCACACAGGACAAUUAUUCUUAUGCCUAAGUUAACAGUGGAUAA: 0.373
CAGUCACAUGUUACACUUGAGCAACAAUUGUCUAGGCUAGAAAUAUAGAACCACACAAUAUUUAUCAUCAUUGGGUCAAUUUCUCCCCCUCUAUCAAGUGAGGAGAUUAA: 0.312

Study 3
Target: Histone acetyltransferase KAT6A, both winged helices, GST fusion (KAT6A, Homo sapiens, UniProt Q92794, residues 1-181)
Method: protein binding microarray
Molecule type: double-stranded DNA, one strand shown
Medium: in vitro
Concentration: not given
Setting: 8-mer, flanks averaged, mean of 2 arrays, mostly near background
Reference: not given
Reading: higher = stronger binding
Measurement: E-score
Construct (chain): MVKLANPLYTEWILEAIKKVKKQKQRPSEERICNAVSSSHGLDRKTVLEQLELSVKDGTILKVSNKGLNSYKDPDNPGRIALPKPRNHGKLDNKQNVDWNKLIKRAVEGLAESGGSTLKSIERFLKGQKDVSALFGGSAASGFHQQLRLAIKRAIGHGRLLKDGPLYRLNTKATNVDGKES
GATTCGCA: 0.0753
GATGCAAC: -0.205
CGCGTAAC: 0.308
GTTAGAAC: 0.00848
ACTTCTAG: -0.0461
CCAACTCG: -0.158
AGAAGCCT: -0.132
ACTGACGC: 0.134
CTAGCTGC: -0.0775

Further values, each from its own experiment
PhoQ, residues 284 288 289 292 302 303 AMDMFI
fold induction (PhoP, residues 12 14 15 18 19 AYFRS (Escherichia coli, UniProt P23836); Sort-seq, item: YFP reporter; E. coli; PhoQ-PhoP variant library, added: 10 µM Mg2+; reference: high Mg2+ state, higher = stronger signaling): 0.958
